{"data": "Measurements collected from several papers", "cell line": "RAW264.7", "note": "Lines come from different studies, so protocols differ. ± marks the error that the study gave."}
{"Structure (SMILES)": "COC1=C[C@@H]2[C@@H]3Cc4ccc(OC)c(O)c4[C@]2(CCN3C)CC1=O", "assay": "NO release, inhibitor, Griess", "conditions": "LPS-stimulated", "quantity": "IC50", "value": "70.9 µM"}
{"Structure (SMILES)": "CNC(=N)NCCC[C@H](N)C(=O)O", "assay": "NO release, inhibitor, Griess", "conditions": "LPS-stimulated", "quantity": "IC50", "value": "22.1 µM"}
{"Structure (SMILES)": "Cc1ccc(NC(=S)NS(=O)(=O)c2cnc(N/N=C/c3ccccc3)[nH]c2=O)cc1", "assay": "qPCR, item: IL-6", "conditions": "concentration not given, compound at quarter of IC50, added: LPS 1 µg/mL", "scale": "relative to: LPS control", "quantity": "mRNA level", "value": "0.171 ± 0.007 fold change"}
{"Structure (SMILES)": "O=C1C[C@H](O)CO1", "assay": "NO production", "conditions": "added: LPS", "quantity": "IC50", "value": "21 ± 10.8 µM"}
{"Structure (SMILES)": "NNc1ncc(S(=O)(=O)NC(=S)Nc2ccccc2)c(=O)[nH]1", "assay": "qPCR, item: CRP", "conditions": "concentration not given, compound at quarter of IC50, added: LPS 1 µg/mL", "scale": "relative to: LPS control", "quantity": "mRNA level", "value": "0.207 ± 0.021 fold change"}
{"Structure (SMILES)": "O=C(/C=C/CCl)O[C@@H]1COC(=O)C1", "assay": "NO release, inhibitor", "conditions": "LPS-stimulated", "quantity": "IC50", "value": "4 µM"}
{"Structure (SMILES)": "C/C=C/C(=O)O", "assay": "ChIP-seq", "conditions": "10 mM, added: LPS", "scale": "relative to: responsive over unresponsive genes", "quantity": "FLAG-AF9 occupancy fold change", "value": "1.58 fold"}
{"Structure (SMILES)": "COC(=O)[C@@H](N)CCCNC(N)=N[N+](=O)[O-]", "assay": "NO release, inhibitor, Griess", "conditions": "LPS-stimulated", "quantity": "IC50", "value": "36.8 µM"}
{"note": "A few entries again:"}
{"Structure (SMILES)": "C/C=C/C(=O)O", "assay": "ChIP-seq", "conditions": "10 mM, added: LPS", "scale": "relative to: responsive over unresponsive genes", "quantity": "FLAG-AF9 occupancy fold change", "value": "1.58 fold"}
